# Measurements pooled from the literature.
# Protocols differ between the studies behind these lines. “And” joins repeats or separate records; there may be more than shown. Numbers after ± are the reported error.
Structure (SMILES),organism,test,test system,conditions,how to read,quantity,value
COc1ccc(NC(=O)N2CCCN3CC[C@H](c4ccc(/C=C/c5ccccc5)cc4)[C@@H]3C2)cc1,Toxoplasma gondii,,"HFF, RH (type I)",concentration not given,,growth inhibition,inactive
Brc1ccc(-c2c[nH]c(-c3ccccn3)n2)cc1,Schistosoma mansoni,,female worms,100 µM,,worm killing,0%
Cc1ncncc1-c1ccc(C(=O)N2CC[C@H](C(=O)Nc3cc(F)c(F)c(F)c3)C2)[nH]1,hepatitis B virus,measured: intracellular HBV DNA,HepG2.2.15,"0.1 µM, 144 h",relative to: vehicle,HBV DNA remaining,91%
CCCCCC1CC2CCCC3CC(C)N=C(N1)N32 (centres unmarked),Candida krusei,fungal growth,ATCC 6258,,,MFC,15.9 µM and 15 µM
C#CCN1CCc2c3n(c4ccccc24)C(=O)C(=C)CC3(C(=O)OC)C1 (centres unmarked),hepatitis B virus,HBsAg secretion,HepAD38,,relative to: CC50 over IC50,selectivity index,6.68
Fc1ccc2c(c1)c1nc3ccc(Br)cc3c-1cn2Cc1cn(-c2ccccc2I)nn1,Giardia duodenalis trophozoites,"UHPLC-Q-TOF-MS, measured: 3-methylbutyl pentadecanoate",,"IC50, 0.2617 h",relative to: 0.25% DMSO,fold change,5.77
O=C(Nc1ccc2c(c1)CN(c1ccc(Cl)cc1)C2=O)N1CC[C@H](F)C1,Trypanosoma brucei brucei,"cell growth, resazurin",Squib 427,3 days,,IC50,> 64000 nM
CC(C)c1ccc(Cn2ccc([C@H](C)[C@](O)(Cn3cnnn3)c3ccc(F)cc3F)n2)cc1,Candida krusei,growth curve,"4946, YPD medium",0.25 µg/mL,,growth inhibition,inhibited
C[C@@H]1C[C@H](Nc2ccccc2)c2cc(F)ccc2N1C(=O)c1ccc(F)cc1,Aedes albopictus,,,"1 µM, second-instar larvae",,logit mortality,-0.44
CCCCn1c2ccccc2c2ccnc(-c3ccccc3Cl)c21,Echinococcus granulosus,eosin staining,sensu stricto protoscoleces,"40 µM, 48 h, 10% fetal bovine serum",,viability,62.8 ± 5.9%
O=S(=O)(O)CCCCCCCCCCCSC[C@H]1O[C@@H]2O[C@H]3[C@H](O)[C@@H](O)[C@@H](O[C@H]4[C@H](O)[C@@H](O)[C@@H](O[C@H]5[C@H](O)[C@@H](O)[C@@H](O[C@H]6[C@H](O)[C@@H](O)[C@@H](O[C@H]7[C@H](O)[C@@H](O)[C@@H](O[C@H]8[C@H](O)[C@@H](O)[C@@H](O[C@H]1[C@H](O)[C@H]2O)O[C@@H]8CSCCCCCCCCCCCS(=O)(=O)O)O[C@@H]7CSCCCCCCCCCCCS(=O)(=O)O)O[C@@H]6CSCCCCCCCCCCCS(=O)(=O)O)O[C@@H]5CSCCCCCCCCCCCS(=O)(=O)O)O[C@@H]4CSCCCCCCCCCCCS(=O)(=O)O)O[C@@H]3CSCCCCCCCCCCCS(=O)(=O)O,Enterovirus D68,viral replication,Fermon,concentration not given,,antiviral activity,no inhibition
Cc1ccc(NC(=O)N2CCCN3CCC(c4ccc(C#CC5(O)CCCCC5)cc4)C3C2)cc1 (centres unmarked),Toxoplasma gondii,parasite growth,"HFF, RH type I luciferase",,,EC90,460 ± 40 nM
O=C[C@H](C[C@H]1CCNC1=O)NC(=O)[C@H](Cc1ccccc1)NC(=O)OCc1ccccc1,Enterovirus D68,viral replication,WI-38,37 °C,,EC50,80 ± 20 nM
N=C(NO)NN=Cc1nccc2ccccc12,human mastadenovirus C,plaque reduction,"A549, McEwen",,relative to: TC50 over IC50,selectivity index,2.5
O=C(Nc1ccccc1Nc1ccccc1)c1cccnc1Br,Sclerotinia sclerotiorum,microbial growth,,50 µg/mL,,inhibition,8.2%
CC(C)C[C@H](NC(=O)OCc1ccccc1)C(=O)N[C@@H](C[C@H]1CCNC1=O)C(=O)C(=O)NC1CC1,human rhinovirus 1B,viral replication,WI-38,37 °C,,EC50,250 ± 210 nM
COC(=O)/C=C/c1ccc(OCCNS(=O)(=O)c2ccccc2)c(OC)c1,tobacco mosaic virus,"inactivation activity, half-leaf method",,,,EC50,198 ± 8.3 µg/mL
COc1cc(OC)c2c(c1)C(=O)c1cc3oc(=O)cc(C)c3c(O)c1C2=O,Bacillus cereus,,MTCC 1306,100 µg/disc,,zone of inhibition,< 8 mm
CC(=O)OC[C@H]1O[C@@H]([Se]Cc2ccccc2C(F)(F)F)[C@H](OC(C)=O)[C@@H](OC(C)=O)[C@@H]1OC(C)=O,Trypanosoma brucei brucei,,bloodstream form,"5 µM, 24 h, 1 % DMSO",,viability,92.5 ± 10.3%
Cc1c2c(cc3oc(=O)cc(-c4ccc(O)cc4)c13)C(=O)c1cccc(O)c1C2=O,Bacillus cereus,,MTCC 1306,100 µg/disc,,zone of inhibition,8 mm
C[C@@H]1C[C@H](Nc2ccccc2)c2cc(F)ccc2N1C(=O)c1ccc(C(F)(F)F)cc1,Aedes albopictus,,,"1 µM, second-instar larvae",,logit mortality,-0.31
COc1ccc(NC(=O)N2CCCN3CCC(c4ccc(C#Cc5ccncc5)cc4)C3C2)cc1 (centres unmarked),Toxoplasma gondii,,"HFF, RH (type I)",concentration not given,,growth inhibition,inactive
C#CCN1CCc2c3n(c4ccccc24)C(=O)C(=C)C3(C(=O)OC)C1 (centres unmarked),hepatitis B virus,HBsAg secretion,HuH7-NTCP,5 µM,,inhibition,40 to 50%
O=C(N[C@@H](CC1CCCCC1)C(=O)N[C@@H](C[C@H]1CCNC1=O)C(=O)C(=O)NC1CC1)OCc1ccccc1,human rhinovirus 1B,viral replication,WI-38,37 °C,,EC50,150 ± 70 nM
COc1ccc(C(=O)N2c3ccc(F)cc3[C@@H](Nc3ccccc3)C[C@H]2C)cc1,Aedes albopictus,,,"1 µM, second-instar larvae",,logit mortality,-0.16
COc1ccc(-c2nc(-c3ccccc3OC)[nH]c2-c2ccc(OC)cc2)cc1,Schistosoma mansoni,,mature male and female worms,"5 µM, 96 h",,worm killing,0%
Cc1ccc(NC(=O)N2CCCN3CCC(c4ccc(C#Cc5cccnc5)cc4)C3C2)cc1 (centres unmarked),Toxoplasma gondii,"parasite growth, luciferase","HFF, RH type I luciferase",,,EC90,1260 nM
O=C(CCNC(=O)c1ccsc1)Nc1cccc(Oc2ccc(Cl)cc2)c1,hepatitis B virus,"Dane particle release, inhibitor",HepG2-hNTCP-C4,"added day 9, read day 11",,IC50,11 nM
CC[P+](CC)(CC)[Au-][S][C@@H]1O[C@H](COC(C)=O)[C@@H](O[C@H]2O[C@H](COC(C)=O)[C@@H](OC(C)=O)[C@H](OC(C)=O)[C@H]2OC(C)=O)[C@H](OC(C)=O)[C@H]1OC(C)=O,Enterobacter cloacae,,NCTC 13405,concentration not given,relative to: auranofin,fold activity enhancement,2 to 4
CCCCc1ccc(C(=O)N2c3ccc(F)cc3[C@@H](Nc3ccccc3)C[C@H]2C)cc1,Aedes albopictus,,,"1 µM, second-instar larvae",,logit mortality,-0.33
Cc1ccc(N(CCc2nnc(S)o2)S(=O)(=O)c2ccccc2)cc1,Colletotrichum capsici,cup plate method,,100 µg/mL,relative to: fluconazole,relative inhibition,127%
CC(C)S(=O)(=O)c1cccc(O)c(=O)c1O,hepatitis B virus,,HepDES19,,relative to: CC50 over EC50,selectivity index,25
CC(C)C[C@H](NC(=O)CNC(=O)c1cc(Cl)ccc1Cl)B(O)O,Babesia divergens,,erythrocyte culture,"400 nM, 48 h",,reduction of parasitemia,64%
COc1ccc(NC(=O)N2CCCN3CCC(c4ccc(C#Cc5ccccn5)cc4)C3C2)cc1 (centres unmarked),Toxoplasma gondii,parasite growth,"HFF, RH type I luciferase",,,EC90,960 ± 60 nM
O=C(N[C@@H](CC1CCCCC1)C(=O)N[C@@H](C[C@H]1CCNC1=O)C(=O)C(=O)NC1CC1)OCc1cccc(Cl)c1,Enterovirus D68,viral replication,WI-38,,,EC90,130 nM
COc1ccc(NC(=O)N2CCCN3CCC(c4ccc(C#CC5CC5)cc4)C3C2)cc1 (centres unmarked),Toxoplasma gondii,parasite growth,"HFF, RH type I luciferase",,,EC90,> 10000 nM
C[C@@H]1C[C@H](Nc2ccccc2)c2cc(F)ccc2N1C(=O)c1ccc(Cl)c(Cl)c1,Aedes albopictus,,,"1 µM, second-instar larvae",,logit mortality,0.48
COC(=O)/C=C/c1ccc(OCCNS(=O)(=O)c2ccc(OC)cc2)c(OC)c1,tobacco mosaic virus,"inactivation activity, half-leaf method",,,,EC50,175 ± 11.6 µg/mL
CCCCCCCCCC1CC2CCCC3CC(CCCCCCCCC)NC(=N1)N23 (centres unmarked),Candida krusei,fungal growth,ATCC 6258,,,IC50,1870 nM
Cc1ncc([N+](=O)[O-])n1CCOCc1nnc(SCC(=O)c2ccc(Br)cc2)o1,Enterobacter cloacae,,DMSO,"60 µg/mL, 24 h, 37 °C",,inhibition zone diameter,≥ 20 mm
O=C(NCc1ccccc1)N1CCCN2CCC(c3ccc(C#Cc4ccccc4)cc3)C2C1 (centres unmarked),Toxoplasma gondii,parasite growth,"HFF, RH type I luciferase",,,EC90,4630 ± 80 nM
COC1C=COC2(C)Oc3c(C)c(O)c4c(c3C2=O)C2=NC3(CCN(CC(C)C)CC3)NC2=C(NC(=O)C(C)=CC=CC(C)C(O)C(C)C(O)C(C)C(OC(=O)Nc2cccnn2)C1C)C4=O (centres unmarked),Mycobacteroides abscessus,,"subsp. abscessus ATCC 19977, GM-CSF knockout mouse, acute infection, lung","oral, 25 mg/kg daily, 7 doses",relative to: start of treatment,lung CFU reduction,> 2 log CFU
CN[C@H](CC(C)C)C(=O)N[C@H]1C(=O)N[C@@H](CC(N)=O)C(=O)N[C@H]2C(=O)N[C@H]3C(=O)N[C@H](C(=O)N[C@H](C(=O)O)c4cc(O)cc(O)c4-c4cc3ccc4O)[C@H](O)c3ccc(c(Cl)c3)Oc3cc2cc(c3O[C@@H]2O[C@H](CO)[C@@H](O)[C@H](O)[C@H]2O[C@H]2C[C@](C)(NCc3ccc(C(=O)OCCCCCCN(Cc4ccccn4)Cc4ccccn4)cc3)[C@H](O)[C@H](C)O2)Oc2ccc(cc2Cl)[C@H]1O,Bacillus subtilis,"protein synthesis, measured: YceC",168,"concentration not given, 10 min, at peak effective concentration",relative to: untreated,regulation factor,3.4 ± 1
CC(=O)OC[C@H]1O[C@@H]([Se][C@@H]2O[C@H](COC(C)=O)[C@H](OC(C)=O)[C@H](OC(C)=O)[C@H]2OC(C)=O)[C@H](OC(C)=O)[C@@H](OC(C)=O)[C@H]1OC(C)=O,Trypanosoma brucei brucei,,bloodstream form,"5 µM, 24 h, 1 % DMSO",,viability,96.4 ± 17.7%
N=C(NO)NN=Cc1cnc2cc(C(F)(F)F)ccc2c1O,Herpes simplex virus 1,"viral replication, plaque reduction","Vero, McKrae",4 days,,IC50,inactive
CC(=O)N[C@H](CCCCN)C(=O)N[C@H](CC(C)C)C(=O)N[C@H](CCCCN)C(=O)N[C@H](CO)C(=O)N[C@H](CC(C)C)C(=O)N[C@H](CC(C)C)C(=O)N[C@H](CCCCN)C(=O)N[C@@H](C(=O)N[C@H](CC(C)C)C(=O)N[C@H](CO)C(=O)N[C@H](CCCCN)C(=O)N[C@H](C)C(=O)N[C@H](CCCCN)C(=O)N[C@H](CCCCN)C(=O)N[C@H](CCCCN)C(=O)N[C@H](CCCCN)C(=O)N[C@H](CC(C)C)C(=O)N[C@H](CCCCN)C(=O)N[C@@H](C(=O)N[C@H](CC(C)C)C(=O)N[C@H](CC(C)C)C(=O)N[C@H](CCCCN)C(=O)N[C@H](C)C(=O)N[C@H](CC(C)C)C(=O)N[C@H](CO)C(=O)N[C@H](CCCCN)C(N)=O)[C@H](C)O)[C@H](C)O,Acinetobacter baumannii,,11 isolates,"24 h, 37 °C",,MIC geometric mean,0.4 µM
CC(=O)[O-].O.O.O.O.[Mn+2].[O-]c1ccc(Br)cc1C=NCCN1CCOCC1,Bacillus cereus,,,20 µL of 100 µM per disc,,inhibition zone diameter,17 mm
COc1ccc(NC(=O)N2CCCN3CCC(c4ccc(C#CC(C)C)cc4)C3C2)cc1 (centres unmarked),Toxoplasma gondii,parasite growth,"HFF, RH type I luciferase",,,EC90,> 10000 nM
Cc1cc(N2CC[C@@](C#N)(C3(C)CC3)C2=O)cc(C(=O)NCc2cc(F)cc(-c3cnn(C)c3)c2)n1,Plasmodium falciparum,,"Pf3D70087/N9, humanized SCID mouse","10 mg/kg, day 7 postinfection, 4-day treatment",,parasitemia inhibition,80%
C#CCN1CCC23C(=C(C(=O)OC)CC(C(=O)OC)C12)Nc1ccccc13 (centres unmarked),hepatitis B virus,HBsAg secretion,HuH7-NTCP,5 µM,,inhibition,40 to 50%
COc1c2c(cc3oc(=O)cc(C)c13)C(=O)c1cc(C)cc(O)c1C2=O,Bacillus cereus,,MTCC 1306,100 µg/disc,,zone of inhibition,8 mm
COc1ccc(-c2nccc3c4ccccc4n(Cc4ccccc4)c23)cc1,Echinococcus granulosus,eosin staining,sensu stricto protoscoleces,"40 µM, 48 h, 10% fetal bovine serum",,viability,85.8 ± 3.02%
Nc1ccn(C[C@@H](CO)OCP(=O)(O)OCCCS(=O)(=O)CCCCCCCCCCC2CCC2)c(=O)n1,human betaherpesvirus 5,cytopathic effect,AD169,,relative to: CC50 over EC50,selectivity index,74
C#CCN1CCc2c(n(C(=C)C(=O)OC)c3ccccc23)C(C(=O)OC)C1 (centres unmarked),hepatitis B virus,"cccDNA level, qPCR",HuH7-NTCP,5 µM,,inhibition,~80%
CC(C)C[C@H](NC(=O)OCc1cccc(Cl)c1)C(=O)N[C@H](C=O)C[C@H]1CCNC1=O,human rhinovirus 1B,viral replication,WI-38,37 °C,,EC50,750 ± 210 nM
O=S(=O)(c1ccccc1)N(CCc1nnc(S)o1)c1ccccc1,Colletotrichum capsici,cup plate method,,100 µg/mL,relative to: fluconazole,relative inhibition,100%
